Assay results pooled from the literature.
A part holds a random share of what one study measured.

Sample 1
Target: Centromere-binding protein 1, full length, His-tagged (CBF1, Saccharomyces cerevisiae, UniProt P17106, residues 1-351)
Sequence of UniProt P17106 (whole entry, looked up): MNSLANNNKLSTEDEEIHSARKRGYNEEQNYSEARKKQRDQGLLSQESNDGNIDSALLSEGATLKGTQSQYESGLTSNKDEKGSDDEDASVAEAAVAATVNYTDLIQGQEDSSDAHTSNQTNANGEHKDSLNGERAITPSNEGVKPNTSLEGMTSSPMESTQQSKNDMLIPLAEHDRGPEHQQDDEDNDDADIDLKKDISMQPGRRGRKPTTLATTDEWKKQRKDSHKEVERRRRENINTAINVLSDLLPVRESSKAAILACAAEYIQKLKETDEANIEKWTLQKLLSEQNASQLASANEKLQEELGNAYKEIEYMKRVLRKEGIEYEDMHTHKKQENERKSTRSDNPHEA
Method: competition protein-binding microarray
Molecule type: double-stranded DNA, one strand shown
Matrix: in vitro
Tested at: 2 µM
Notes: whole 60-bp probe, lowest competitor level
Together with: Pho4 competitor, 0.05 µM
Direction: higher = stronger binding
All sequences stand within: … GTCTTGATTCGCTTGACGCTGCTG
Sequence | fluorescence intensity
AAGAACATTGATAGTCCCGTGACGGCCCTAAGTGCG | 1300 a.u.
CATACCCAACCTTGAGACGTGGGTGAAGATATTTGT | 73.6 a.u.
TAACACATAACCCATCACGTGTTGGTCTTGATAGTC | 4560 a.u.
TATCAGATCAGCCATCACGTGCCGAGTCGTTAGAAA | 4120 a.u.
CTAACGAAGGTTTTTCACGTGATTTACAAGCCAAGT | 4530 a.u.
TAACCCACCTTGGGCCACGTGGAAACCAGGGGCCAG | 483 a.u.
CCACCACTCCAACAGAGCGTGTTGAAATTCAAAAAT | 87.8 a.u.
CTTGTCCTCAAATGCGGCGTGCAAAGTTCATAGCGG | 81.8 a.u.
TGCGCAACAACTTGACAAGTGGGTGTATGTCTAGAA | 82 a.u.
CATACCCAACCTTTTCACGTGCTGTAAGATATTTGT | 1160 a.u.
TGGCTACTTCGTCACCACGTGGGTACGTATCCGGAA | 1480 a.u.
TTCCAGTCCTTCCATCACGCATTCCATATAATAACC | 118 a.u.
TAACCATTTCTTCCTGTCGTGGGTAGTTCATACCAT | 86.6 a.u.
CGGGGTTAAGTTTGCGTTGTGGGTGGCTTGCAGCAG | 93.6 a.u.
CATACCCAACCTTGTCACCGTACTTAAGATATTTGT | 63.4 a.u.
CTTCTGTAAATTTGCGTAGTGGGTGGACGCGCCCCG | 79.7 a.u.
CTAACGAAGGTTTGAGAGGTGGGTGACAAGCCAAGT | 55.8 a.u.
CGGGGTTAAGTTTGTCAAGTGGGTGGCTTGCAGCAG | 83.2 a.u.
TGCGCAACAACTTGGCCCGTGGGTGTATGTCTAGAA | 72.5 a.u.
CAACACAATTCGAGTCACGTGGAACGGCCTTCAAAT | 6730 a.u.
CGCCGACGACGCCGACACGCACCGTTCTACTCGCTC | 53.3 a.u.

Sample 2
Target: Cellular tumor antigen p53, full length (TP53, Homo sapiens, UniProt P04637, residues 1-393)
Method: protein-binding microarray
Molecule type: hairpin DNA
Matrix: in vitro
Tested at: not given
Notes: whole hairpin DNA, median over replicate spots
Baseline: not given
Direction: higher = stronger binding
Sequence | median fluorescence [a.u.]
CGGACATGCCCCGGCATGTCTCCTGACATGCCGGGGCATGTCCGACACTC (5mC at 12 32) | 12500
CCACACGTGGTGGCATGCCTTCCTAGGCATGCCACCACGTGTGGACACTC | 7790
CGGACATGGCCGGGCATGTCTCCTGACATGCCCGGCCATGTCCGACACTC (5mC at 36) | 12800
CGGACATGCCCGGGCATGTCTCCTGACATGCCCGGGCATGTCCGACACTC | 23100
CGGACATTCCCGGGCATGTCTCCTGACATGCCCGGGAATGTCCGACACTC | 10700
CCACACGTGGTGCGATGCCTTCCTAGGCATCGCACCACGTGTGGACACTC (5mC at 13) | 4620
CGGAAATGCCCGGGCATGTCTCCTGACATGCCCGGGCATTTCCGACACTC | 12800
CCAAACGTGGTGGCATGCCTTCCTAGGCATGCCACCACGTTTGGACACTC | 8660
CCACGCGTGGTGGCATGCCTTCCTAGGCATGCCACCACGCGTGGACACTC | 7700
CGGAGATGCCCGGGCATGTCTCCTGACATGCCCGGGCATCTCCGACACTC (5mC at 40) | 13400
CCACACGTGGGGGCATGCCTTCCTAGGCATGCCCCCACGTGTGGACACTC | 9900
CGGACATGCCCGGGGATGTCTCCTGACATCCCCGGGCATGTCCGACACTC (5mC at 30) | 7910

Sample 3
Target: RING finger protein unkempt homolog, zinc fingers 1-6, SBP tag (UNK, Homo sapiens, UniProt Q9C0B0, residues 30-357)
Sequence of UniProt Q9C0B0 (30-357, looked up): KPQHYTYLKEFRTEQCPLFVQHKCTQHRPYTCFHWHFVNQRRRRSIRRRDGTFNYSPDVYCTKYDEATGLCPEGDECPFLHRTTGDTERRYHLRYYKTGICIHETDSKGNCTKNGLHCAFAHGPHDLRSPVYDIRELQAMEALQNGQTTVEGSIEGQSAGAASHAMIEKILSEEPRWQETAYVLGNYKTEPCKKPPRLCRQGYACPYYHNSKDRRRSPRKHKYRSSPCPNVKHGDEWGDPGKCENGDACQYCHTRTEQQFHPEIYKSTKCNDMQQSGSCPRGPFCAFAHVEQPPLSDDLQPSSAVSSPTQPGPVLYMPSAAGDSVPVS
Method: RNA Bind-n-Seq
Molecule type: RNA
Matrix: in vitro
Tested at: 100 nM
Notes: RNA with constant flanks, vertebrate orthologous sites, ends assumed
Baseline: input RNA pool
Direction: higher = stronger binding
All sequences stand within: GGGAGUUCUACAGUCCGACGAUC … CAACAGAGGAUUGAGCAUCA
Sequence | bound/input enrichment [ratio]
CGUAAAAUAUUGGAUGCAGUGUAUAAAUUGUCCAAGGCAGUGACUUCAGCUUUAUAUAUAUUGUUAAUUUUAAAGUCGUUUACUUUUAUUUAAACUUCUAGAUUGGACUGUUUGCUAUUG | 0.593
UUACAGUCAUUGAUGGACUCUAUUUUUUUAUUAUUACUUGGACCUUGGUCGUUUUUAUACUAGCAACGAAAAAUGUCUUGUUUUAAUUUGUUUUUUGGGGGGUGCGGGGUGGGAAGUGUC | 0.646
UUAAUUAGAAGGUAGUAUGUGUUUCAUAAAGAAAAGUCUUUAUAAUUUUUGUUUGUCAUGUAGUAUUUUGGAAUUUGUAUAAUGAGGACGUUUAGAAGCCAUAUCAAUGGCUUUUUUUAC | 0.252
AGCUUCUGGCGACAUUUGGCCUGGCCUUUCAGCAUAUGAUAACAGUCCAAGGUCACCCCAUAGUCCUUCUAUUGCCACCCCACCUAGUCAGAGUUCAUCUUGCUCUGAAGCCCCUUUGCU | 0.897
AUGCCACCCCAGUUACUGCCACUGCCCACUUCCACAUCUCCUCCUUCACCCUCCUCUUGCACAAAUUAUGUAGGUGUCAAGUGAAUAAAGUGUGUGUGUCAAUGGAGCUGGCCUGUGCAG | 0.259
UUACAGUCAUUGAUGGACUCUAUUUUUUUAUUAUUACUUGGACCUUGGUCGUUUUUAUACUAGCAAAAUGUCUUGUUUUGAUUUGUGUUGUUUUGGUUUUUUUGUUUCGUUUUGUUUUUU | 1.58
GCUCUAGUUCUUAAGAACCAACACUCCUAAAAGAUUUAGAAAAAAGUUUACAACAUAAUCUAGUUUACGAAGAAGCCUUGUGCUAGAAUACUUUUUAAAAAGUAUUUUUGAAUACCAUUA | 0.669
ACAUCAUGGAUUACUGUCAUUUUGGUAGCAGGUAGAACAUUUUGCAAGAAAUGUAUACACCUAGUUAAGCUGAAUAUGAUAUAUUUUUAUUAGCCUGUAAAUAAAUAUACUCUUCUGCAU | 0.682
UAAAGUCAUUUUUUCACAUUUCCUGUAAAUAAUGGAUAAUCAUUUUUUUAUUUUAUUUUUAAGUGCUGUUUUAACAAUGUGGAUAGACCAUAAAUGUACUUGCUGAAUUCAUUCAUUUUU | 0.473

Sample 4
Target: RNA binding protein fox-1 homolog 2, RRM domain, GST-SBP tag (RBFOX2, Homo sapiens, UniProt O43251-10, residues 100-194)
Method: RNA Bind-n-Seq
Molecule type: RNA
Matrix: in vitro
Tested at: 365 nM
Notes: natural RNA segment, single round, ends assumed
Baseline: no-protein control
Direction: higher = stronger binding
All sequences stand within: GGGAGUUCUACAGUCCGACGAUC … UGGAAUUCUCGGGUGCCAA
Construct (chain): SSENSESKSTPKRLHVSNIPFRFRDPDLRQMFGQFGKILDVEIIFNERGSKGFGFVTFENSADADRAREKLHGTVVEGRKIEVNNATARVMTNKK
Sequence | RBNS enrichment (R)
UGUUAUAUUUUUUAUAAAAAUGUUUAUUUUUAAUGAUAUGAGAAAAAUUUUGUUAGGCCACAAAAACACUGCACUGUGAACAUUUUAGAAAAGGUAUGUCAGACUGGGAU | 3.34
AUAAAUGUGAUUUUUGUGUGAUUAUCUGGUUUCCAGUUUUAAACAUUAACUGUCACCUUUUAUUCUUAAACUUGAAAGUACAGAAAUCAUUAAAUUAUUAAGUUGUACAA | 0.331
CUUCUCCGCAGCAAGAUAUGAAAACCUUUUCAGUGCUUGCCCUCAGCAGCUAAGAAGACAGACAGUAGAGAAUGUGAGAGGAUCUCAUGGUUCUGAUGAUGAUUAUCCAA | 1.19
UUAUUUGUUUCUCCAGUAUAUAGCUUUGUUUUAGCCUUUGUAAAUUACUUUUAUGAUAGUAGAAAUAUUAUAAGCCUAAGACAUGGACUAUCCAUUUUGUAAAACGGAUU | 0.457
UGAAAGUGAACUGCUGUUUGCCUGAUUGGUAAACCAACACACUACAAUUGAUAUCAAAAGGUUUCUCCUGUAAUAUUUUAUCCCUGGACUUGUCAAGUGAAUUCUUUGCA | 4.41
CCACACCUCAGGUCCAGCGCACACUUCCUCCUUGCAUAGCAGGUGGGAGCAGACUUCUAAUGGACAGAAGCCACGUGGGAAGUAGAGACUUGGAGGGAGACGCCGAGGUG | 0.371
GGGUUUUUUUCUGCCUAAGUUUUACCUGUUUCACCAGUGUUUCAGCCCUUGACUGCCCCUCCUAUGCUGCUUCCAAAAGUAAUAGUGUGAUAAGAUUUUUACCUUCCUUU | 0.692
ACCCAAAAGCAACUGUAACUCAGAAAUUAAGUUACUCAGAAAUUAAGUAGCUCAGAAAUUAAGAAAGAAUGGUAUAAUGAACCCCCAUAUACCCUUCCUUCUGGAUUCAC | 0.291
UAUUUGCAUCAGUAUAAUAUAUAUCAGUGUGUCAUACAGAAAGAUAUGCUUCUGUAAUAUGAAAUAGGUUAUUUGAUAACUGAGAAACUUUAAAUGUAUCAUGUGAGCAU | 0.624
CCAACGCCAGGUAGCAUGUGGCCACCCUUGCCCAGUGUCUGUGGCCUGGCAAGUGGCCACGCCCUGUGUCAGACCAUCUGGGAAUUAAGCUCCAGACAGACUUACAGAUG | 1.13
UAUUCUGUUCUUUAGUAUAACAGCAAGUAUAAUUAUGCCGAGUCCUGCCAUCAUAAGUAUGGAGUAAGCUAAAGGAUGACCGUUAUGCCCGUGUAGACAUAGUGUACUCA | 0.427
UAGUAGGCAUUUAGCAAACAUUUAUUGACAAAAAAUAAAACAAAAACUGACAAAUGAAUGUGUAUAACUUUUUCAUGUCUUUUUUACUGUAAAUAACCACUUGACCGGUC | 0.385

Sample 5
Target: Sal-like protein 4, full length isoform B (SALL4, Homo sapiens, UniProt Q9UJQ4-2, residues 1-616)
Method: universal PBM
Molecule type: double-stranded DNA, one strand shown
Matrix: in vitro
Tested at: not given
Notes: 8-mer, flanks averaged, mean of replicates
Direction: higher = stronger binding
Target sequence (chain): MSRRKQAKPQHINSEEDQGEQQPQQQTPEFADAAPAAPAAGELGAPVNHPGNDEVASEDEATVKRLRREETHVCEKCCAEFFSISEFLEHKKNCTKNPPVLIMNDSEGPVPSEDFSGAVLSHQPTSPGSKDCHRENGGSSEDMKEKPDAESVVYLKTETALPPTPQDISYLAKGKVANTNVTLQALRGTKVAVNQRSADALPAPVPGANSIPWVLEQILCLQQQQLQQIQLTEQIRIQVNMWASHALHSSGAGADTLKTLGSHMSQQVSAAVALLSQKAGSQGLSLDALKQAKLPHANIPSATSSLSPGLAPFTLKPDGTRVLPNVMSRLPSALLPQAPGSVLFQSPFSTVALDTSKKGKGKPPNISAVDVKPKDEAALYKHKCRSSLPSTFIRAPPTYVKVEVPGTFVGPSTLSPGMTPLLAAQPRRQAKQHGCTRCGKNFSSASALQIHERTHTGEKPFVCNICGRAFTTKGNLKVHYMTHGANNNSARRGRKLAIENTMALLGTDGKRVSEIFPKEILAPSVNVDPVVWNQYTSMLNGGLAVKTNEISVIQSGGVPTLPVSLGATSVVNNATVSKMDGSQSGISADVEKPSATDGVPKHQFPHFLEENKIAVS
Sequence | E-score
GGCGCGTA | -0.184
GACAGGGA | -0.239
AATGCGCT | -0.0586
GCCTGGCA | -0.252
AATACGGG | -0.00447
AACCTCCG | -0.128
CCTCCAAA | -0.102
CGAGCTGA | -0.169
AAACCCAT | 0.217
GCAGTGGA | -0.0115
CGGGCAAG | -0.197
CGCACTTC | -0.196
CCGGCCGC | -0.332
CGTTTTCA | -0.0165
CATAATGC | 0.279
CGGAAGGA | -0.161
ACGACAGA | -0.149
AATGTCAA | 0.206
CAACAGTG | -0.0438
GAGAATTA | 0.246

A few entries again (sample 5):
Sequence | E-score
AATACGGG | -0.00447
AACCTCCG | -0.128
CCTCCAAA | -0.102
CGAGCTGA | -0.169
AAACCCAT | 0.217
GCAGTGGA | -0.0115
CGGGCAAG | -0.197
CGCACTTC | -0.196
CCGGCCGC | -0.332
CGTTTTCA | -0.0165
CATAATGC | 0.279
CGGAAGGA | -0.161
